Measurements collected from several papers.
Parts stem from different laboratories: compare values within a part only. “And” joins repeats or separate records; there may be more than shown. ≈ marks a conversion by molar mass, not a printed value.
Chain of UniProt O75417 (whole entry, unmodified, looked up): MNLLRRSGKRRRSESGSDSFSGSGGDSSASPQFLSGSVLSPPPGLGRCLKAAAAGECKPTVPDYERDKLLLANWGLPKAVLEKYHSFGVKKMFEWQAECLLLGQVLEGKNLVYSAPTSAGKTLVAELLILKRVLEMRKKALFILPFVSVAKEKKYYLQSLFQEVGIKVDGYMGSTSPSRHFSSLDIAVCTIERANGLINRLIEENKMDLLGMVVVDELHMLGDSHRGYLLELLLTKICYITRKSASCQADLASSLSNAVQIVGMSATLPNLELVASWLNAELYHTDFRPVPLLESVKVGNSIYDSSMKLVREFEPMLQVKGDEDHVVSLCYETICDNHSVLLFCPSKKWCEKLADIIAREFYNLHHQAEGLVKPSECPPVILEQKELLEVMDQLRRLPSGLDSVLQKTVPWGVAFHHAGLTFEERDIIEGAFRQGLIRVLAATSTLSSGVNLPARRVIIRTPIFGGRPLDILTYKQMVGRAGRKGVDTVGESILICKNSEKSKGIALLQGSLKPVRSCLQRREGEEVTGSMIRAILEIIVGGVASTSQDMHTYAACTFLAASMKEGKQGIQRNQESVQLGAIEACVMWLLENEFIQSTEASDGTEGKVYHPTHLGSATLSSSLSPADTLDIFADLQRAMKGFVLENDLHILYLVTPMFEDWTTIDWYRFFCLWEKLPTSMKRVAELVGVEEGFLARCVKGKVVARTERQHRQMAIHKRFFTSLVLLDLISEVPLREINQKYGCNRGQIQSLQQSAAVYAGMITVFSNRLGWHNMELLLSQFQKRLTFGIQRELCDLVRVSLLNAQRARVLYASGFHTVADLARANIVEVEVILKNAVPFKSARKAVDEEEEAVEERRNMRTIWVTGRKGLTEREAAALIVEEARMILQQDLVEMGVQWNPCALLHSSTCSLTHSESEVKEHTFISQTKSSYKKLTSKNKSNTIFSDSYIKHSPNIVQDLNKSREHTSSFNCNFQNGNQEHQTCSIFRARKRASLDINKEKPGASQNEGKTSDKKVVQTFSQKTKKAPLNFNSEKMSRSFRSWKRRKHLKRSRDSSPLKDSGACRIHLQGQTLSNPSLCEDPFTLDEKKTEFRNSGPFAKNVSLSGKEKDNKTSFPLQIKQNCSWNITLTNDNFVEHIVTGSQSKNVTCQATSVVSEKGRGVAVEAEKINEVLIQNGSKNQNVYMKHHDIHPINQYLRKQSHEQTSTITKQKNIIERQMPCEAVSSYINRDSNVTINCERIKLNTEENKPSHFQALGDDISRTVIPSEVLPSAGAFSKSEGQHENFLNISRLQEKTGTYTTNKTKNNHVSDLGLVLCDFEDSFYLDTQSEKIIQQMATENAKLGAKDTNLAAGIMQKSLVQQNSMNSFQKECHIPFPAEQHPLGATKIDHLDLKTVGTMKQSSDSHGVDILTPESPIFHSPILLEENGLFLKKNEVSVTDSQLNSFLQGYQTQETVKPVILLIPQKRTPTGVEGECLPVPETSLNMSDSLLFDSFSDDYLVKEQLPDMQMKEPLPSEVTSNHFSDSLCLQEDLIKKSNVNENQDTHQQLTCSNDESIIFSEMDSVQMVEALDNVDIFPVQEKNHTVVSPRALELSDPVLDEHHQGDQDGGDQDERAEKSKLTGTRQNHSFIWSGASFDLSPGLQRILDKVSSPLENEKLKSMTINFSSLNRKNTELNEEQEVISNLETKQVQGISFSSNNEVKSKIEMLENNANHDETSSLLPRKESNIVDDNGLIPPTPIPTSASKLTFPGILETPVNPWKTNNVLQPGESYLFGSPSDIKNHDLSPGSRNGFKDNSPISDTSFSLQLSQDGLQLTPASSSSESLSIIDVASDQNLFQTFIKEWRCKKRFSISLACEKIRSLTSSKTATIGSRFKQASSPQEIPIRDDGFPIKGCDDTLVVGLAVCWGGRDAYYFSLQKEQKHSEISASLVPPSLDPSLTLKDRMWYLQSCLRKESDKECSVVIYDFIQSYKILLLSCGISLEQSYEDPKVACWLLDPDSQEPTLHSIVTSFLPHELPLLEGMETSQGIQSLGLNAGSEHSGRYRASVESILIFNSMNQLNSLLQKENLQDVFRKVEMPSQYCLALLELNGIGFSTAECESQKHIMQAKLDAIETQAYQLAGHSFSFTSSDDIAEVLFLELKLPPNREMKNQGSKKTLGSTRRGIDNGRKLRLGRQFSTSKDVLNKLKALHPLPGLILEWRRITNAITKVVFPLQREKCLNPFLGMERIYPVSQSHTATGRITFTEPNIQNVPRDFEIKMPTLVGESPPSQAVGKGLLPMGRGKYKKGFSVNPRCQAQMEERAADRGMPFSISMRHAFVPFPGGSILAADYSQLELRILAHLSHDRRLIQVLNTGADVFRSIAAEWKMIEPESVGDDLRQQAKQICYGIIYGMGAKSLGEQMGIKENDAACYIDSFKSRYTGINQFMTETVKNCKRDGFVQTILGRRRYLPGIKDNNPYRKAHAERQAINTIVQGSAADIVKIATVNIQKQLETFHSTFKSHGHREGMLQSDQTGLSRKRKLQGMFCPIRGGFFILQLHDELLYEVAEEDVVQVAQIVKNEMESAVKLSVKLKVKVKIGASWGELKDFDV
Chain of UniProt O43318 (whole entry, looked up): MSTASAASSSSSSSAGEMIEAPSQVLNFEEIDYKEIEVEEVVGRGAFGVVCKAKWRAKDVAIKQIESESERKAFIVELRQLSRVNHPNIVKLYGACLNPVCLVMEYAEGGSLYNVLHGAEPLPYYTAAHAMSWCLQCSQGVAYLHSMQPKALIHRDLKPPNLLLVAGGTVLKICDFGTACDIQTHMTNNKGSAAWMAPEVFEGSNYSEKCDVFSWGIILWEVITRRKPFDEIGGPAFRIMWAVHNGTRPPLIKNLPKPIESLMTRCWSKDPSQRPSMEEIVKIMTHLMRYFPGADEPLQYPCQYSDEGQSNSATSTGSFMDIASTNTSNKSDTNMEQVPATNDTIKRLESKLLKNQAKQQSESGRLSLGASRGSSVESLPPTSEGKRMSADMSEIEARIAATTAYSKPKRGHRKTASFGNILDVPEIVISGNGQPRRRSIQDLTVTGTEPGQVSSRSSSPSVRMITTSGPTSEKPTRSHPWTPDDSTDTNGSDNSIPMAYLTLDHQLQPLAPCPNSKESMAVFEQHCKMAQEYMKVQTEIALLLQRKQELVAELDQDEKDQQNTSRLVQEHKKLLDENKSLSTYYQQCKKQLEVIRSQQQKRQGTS
Chain of UniProt Q13976 (whole entry, looked up): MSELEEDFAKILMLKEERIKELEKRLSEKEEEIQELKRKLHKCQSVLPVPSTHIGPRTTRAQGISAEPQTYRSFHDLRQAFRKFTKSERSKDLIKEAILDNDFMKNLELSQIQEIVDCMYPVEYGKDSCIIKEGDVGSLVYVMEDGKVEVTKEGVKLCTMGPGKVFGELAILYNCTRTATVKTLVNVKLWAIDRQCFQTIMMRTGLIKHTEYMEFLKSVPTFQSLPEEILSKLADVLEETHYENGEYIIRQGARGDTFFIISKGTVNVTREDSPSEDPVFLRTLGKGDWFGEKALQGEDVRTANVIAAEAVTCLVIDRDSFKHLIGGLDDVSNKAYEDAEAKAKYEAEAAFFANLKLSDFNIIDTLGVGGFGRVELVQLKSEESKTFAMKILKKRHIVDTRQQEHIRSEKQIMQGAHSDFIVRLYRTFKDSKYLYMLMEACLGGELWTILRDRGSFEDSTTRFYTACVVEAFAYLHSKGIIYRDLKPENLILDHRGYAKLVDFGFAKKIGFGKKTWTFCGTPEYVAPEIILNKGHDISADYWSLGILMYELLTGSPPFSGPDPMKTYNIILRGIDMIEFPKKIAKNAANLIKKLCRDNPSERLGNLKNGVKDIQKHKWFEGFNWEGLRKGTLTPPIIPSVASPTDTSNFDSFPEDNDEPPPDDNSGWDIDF
Chain of UniProt Q16584 (whole entry, looked up): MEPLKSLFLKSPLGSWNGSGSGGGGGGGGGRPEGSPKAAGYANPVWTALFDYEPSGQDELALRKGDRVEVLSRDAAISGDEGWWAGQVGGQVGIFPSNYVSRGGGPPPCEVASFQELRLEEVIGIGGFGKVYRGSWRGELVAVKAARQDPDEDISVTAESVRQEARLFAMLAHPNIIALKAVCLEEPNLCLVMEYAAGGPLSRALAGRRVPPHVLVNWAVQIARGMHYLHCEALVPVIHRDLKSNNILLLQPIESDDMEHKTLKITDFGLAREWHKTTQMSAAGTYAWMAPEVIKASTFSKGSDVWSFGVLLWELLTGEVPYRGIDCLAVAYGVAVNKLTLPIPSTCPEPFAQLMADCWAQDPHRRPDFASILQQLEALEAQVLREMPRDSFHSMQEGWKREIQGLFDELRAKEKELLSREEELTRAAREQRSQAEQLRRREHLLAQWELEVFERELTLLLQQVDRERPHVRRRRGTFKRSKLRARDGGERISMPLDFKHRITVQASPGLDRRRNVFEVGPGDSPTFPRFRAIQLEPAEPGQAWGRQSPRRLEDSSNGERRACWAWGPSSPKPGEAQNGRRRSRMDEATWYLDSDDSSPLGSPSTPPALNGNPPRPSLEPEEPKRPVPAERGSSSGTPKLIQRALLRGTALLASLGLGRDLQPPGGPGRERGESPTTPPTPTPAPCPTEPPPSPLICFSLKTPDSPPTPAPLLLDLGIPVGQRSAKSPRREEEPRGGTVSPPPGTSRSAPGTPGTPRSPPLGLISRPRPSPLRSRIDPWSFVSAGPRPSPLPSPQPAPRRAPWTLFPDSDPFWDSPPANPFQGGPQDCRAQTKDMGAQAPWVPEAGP

Study 1
SMILES: Cn1cncc1[C@@](O)(COc1ccc(C#N)cc1-c1ccc(OC(F)(F)F)cc1)c1ccc(C#N)cc1
Read-out: cell-free assay
Method: competition with immobilised ligand
Concentration: 1 µM
PRKCD (Homo sapiens, UniProt Q05655) — remaining binding: 100%.
For STK38 (Homo sapiens, UniProt Q15208): remaining binding read 100%.
For EGFR (Homo sapiens, UniProt P00533, G719S): remaining binding read 74%.
The remaining binding was 100% (MAP3K11 (Homo sapiens, UniProt Q16584)).
EGFR (Homo sapiens, UniProt P00533, del752-759) — remaining binding: 64%.
For KIT (Homo sapiens, UniProt P10721, D816V): remaining binding read 100%.
For CDK5 (Homo sapiens, UniProt Q00535): remaining binding read 96%.
For HIPK4 (Homo sapiens, UniProt Q8NE63): remaining binding read 100%.
MAP3K7 (Homo sapiens, UniProt O43318) — remaining binding: 67%.
PRKG1 (Homo sapiens, UniProt Q13976) — remaining binding: 94%.

Study 2
Target: Eukaryotic initiation factor 4A-III (Homo sapiens, UniProt P38919)
Chain of UniProt P38919 (whole entry, looked up): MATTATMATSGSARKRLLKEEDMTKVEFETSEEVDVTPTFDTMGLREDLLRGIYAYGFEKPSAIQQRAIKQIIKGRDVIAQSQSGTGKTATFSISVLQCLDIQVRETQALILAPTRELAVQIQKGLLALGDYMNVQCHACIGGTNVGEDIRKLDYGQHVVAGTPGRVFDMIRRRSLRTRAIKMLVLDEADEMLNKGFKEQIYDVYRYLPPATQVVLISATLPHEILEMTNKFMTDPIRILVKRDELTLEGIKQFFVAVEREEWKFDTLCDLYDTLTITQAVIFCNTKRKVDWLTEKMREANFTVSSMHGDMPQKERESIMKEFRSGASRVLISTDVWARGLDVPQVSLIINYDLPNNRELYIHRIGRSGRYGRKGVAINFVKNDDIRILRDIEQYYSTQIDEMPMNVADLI
Read-out: RNA clamping
Method: fluorescence polarization
Concentration: concentration not given
Setting: mean of two replicates
Added: FAM-labelled poly r(AG)8 RNA
For `COc1ccc([C@@]23Oc4cc(OC)cc(OC)c4[C@]2(O)c2nc4n(c(=O)c2[C@@H]3c2ccccc2)CCC4)cc1`, “fluorescence polarization change” read 10 mP.
`COc1ccc([C@@]23Oc4cc(OC)cc(OC)c4[C@]2(O)c2nc[nH]c(=O)c2[C@H]3c2ccccc2)cc1`: “fluorescence polarization change” 12.9 mP.
For `CONC(=O)[C@@H]1[C@@H](O)[C@@]2(O)c3c(OC)cc(OC)cc3O[C@@]2(c2ccc(Br)cc2)[C@H]1c1ccccc1`, “fluorescence polarization change” read 12.1 mP.
`COc1ccc([C@@]23Oc4cc(OC)cc(OC)c4[C@]2(O)c2nc4n(c(=O)c2[C@H]3c2ccccc2)CCCC4)cc1`: “fluorescence polarization change” 25.4 mP.
For `CCCCC1=N[C@@]2(O)[C@H](C(=O)OC)[C@@H](c3ccccc3)[C@]3(c4ccc(OC)cc4)Oc4cc(OC)cc(OC)c4[C@]23N1`, “fluorescence polarization change” read 38.6 mP.
`COC(=O)[C@H]1[C@@H](c2ccccc2)C2(c3ccc(OC)cc3)Oc3cc(OC)cc(OC)c3[C@@]1(O)C2=O` — result for “fluorescence polarization change”: 0.6 mP.
`COC(=O)[C@H]1[C@@H](O)[C@@]2(O)c3c(OC)cc(O)cc3O[C@@]2(c2ccc(OC)cc2)[C@@H]1c1ccccc1`: “fluorescence polarization change” 41.2 mP.
`COc1ccc([C@@]23Oc4cc(OC)cc(OC)c4[C@]2(O)c2nc(-c4ccccc4)n(C)c(=O)c2[C@H]3c2ccccc2)cc1`: “fluorescence polarization change” 18 mP.
`COc1ccc([C@@]23Oc4cc(OC)cc(OC)c4[C@]2(O)c2nc(-c4ccc(N(C)C)cc4)[nH]c(=O)c2[C@H]3c2ccccc2)cc1`: “fluorescence polarization change” 7.1 mP.
`COC(=O)[C@H]1[C@@H](O)[C@@]2(O)c3c(OC)cc(OC)cc3O[C@@]2(c2ccc(OC)cc2)[C@@H]1c1ccccc1` — result for “fluorescence polarization change”: 46.7 mP and 22.5 mP.
For `COC(=O)[C@@H]1[C@@H](c2ccccc2)[C@]2(c3ccccc3)Oc3ccccc3[C@@]1(O)[C@H]2O`, “fluorescence polarization change” read 1 mP.

Study 3
SMILES: CCCCC[C@@H](O)CC(=O)N[C@H]1COC(=O)[C@H](CO)NC(=O)CNC(=O)[C@H]([C@@H](C)O)NC(=O)[C@H](Cc2ccccc2)NC(=O)[C@@H](Cc2c[nH]c3ccccc23)NC(=O)[C@@H]([C@H](C)O)NC(=O)[C@H](CC(N)=O)NC(=O)[C@@H]([C@H](C)O)NC(=O)[C@H](CC(C)C)NC(=O)[C@@H](Cc2c[nH]c3ccccc23)N(C)C(=O)CNC(=O)[C@H](CO)NC(=O)[C@@H](CO)NC1=O
Organism: Staphylococcus aureus
Strain: USA300
It gave 8 µg/mL (≈ 4.79 µM) for MIC (added: ubiquinone 16 µg/mL).
The MIC was 8 µg/mL (≈ 4.79 µM) (added: menaquinone 0 µg/mL).
added: menaquinone 16 µg/mL — MIC: over 64 µg/mL.
For added: menaquinone 4 µg/mL: MIC read over 64 µg/mL.

Single results of other studies
`CCc1cc2c(s1)-n1c(C)nnc1CN=C2c1ccccc1Cl` gave a remaining activity of 93.1% (DNA polymerase theta, ATPase domain (POLQ, Homo sapiens, UniProt O75417); enzyme activity, inhibitor; 77 µM; baseline: untreated).

Some of these lines once more (study 1):
For STK38 (Homo sapiens, UniProt Q15208): remaining binding read 100%.
For EGFR (Homo sapiens, UniProt P00533, G719S): remaining binding read 74%.
PRKG1 (Homo sapiens, UniProt Q13976) — remaining binding: 94%.
PRKCD (Homo sapiens, UniProt Q05655) — remaining binding: 100%.
